Measurements collected from several papers.
Lines come from different studies, so protocols differ. Several values in a cell are separate wells, animals, samples, runs or records. ± marks the error that the study gave.
Cacna1b: Voltage-dependent N-type calcium channel subunit alpha-1B (Cacna1b, Rattus norvegicus, UniProt Q02294)
UniProt Q02294, sequence (whole entry, looked up): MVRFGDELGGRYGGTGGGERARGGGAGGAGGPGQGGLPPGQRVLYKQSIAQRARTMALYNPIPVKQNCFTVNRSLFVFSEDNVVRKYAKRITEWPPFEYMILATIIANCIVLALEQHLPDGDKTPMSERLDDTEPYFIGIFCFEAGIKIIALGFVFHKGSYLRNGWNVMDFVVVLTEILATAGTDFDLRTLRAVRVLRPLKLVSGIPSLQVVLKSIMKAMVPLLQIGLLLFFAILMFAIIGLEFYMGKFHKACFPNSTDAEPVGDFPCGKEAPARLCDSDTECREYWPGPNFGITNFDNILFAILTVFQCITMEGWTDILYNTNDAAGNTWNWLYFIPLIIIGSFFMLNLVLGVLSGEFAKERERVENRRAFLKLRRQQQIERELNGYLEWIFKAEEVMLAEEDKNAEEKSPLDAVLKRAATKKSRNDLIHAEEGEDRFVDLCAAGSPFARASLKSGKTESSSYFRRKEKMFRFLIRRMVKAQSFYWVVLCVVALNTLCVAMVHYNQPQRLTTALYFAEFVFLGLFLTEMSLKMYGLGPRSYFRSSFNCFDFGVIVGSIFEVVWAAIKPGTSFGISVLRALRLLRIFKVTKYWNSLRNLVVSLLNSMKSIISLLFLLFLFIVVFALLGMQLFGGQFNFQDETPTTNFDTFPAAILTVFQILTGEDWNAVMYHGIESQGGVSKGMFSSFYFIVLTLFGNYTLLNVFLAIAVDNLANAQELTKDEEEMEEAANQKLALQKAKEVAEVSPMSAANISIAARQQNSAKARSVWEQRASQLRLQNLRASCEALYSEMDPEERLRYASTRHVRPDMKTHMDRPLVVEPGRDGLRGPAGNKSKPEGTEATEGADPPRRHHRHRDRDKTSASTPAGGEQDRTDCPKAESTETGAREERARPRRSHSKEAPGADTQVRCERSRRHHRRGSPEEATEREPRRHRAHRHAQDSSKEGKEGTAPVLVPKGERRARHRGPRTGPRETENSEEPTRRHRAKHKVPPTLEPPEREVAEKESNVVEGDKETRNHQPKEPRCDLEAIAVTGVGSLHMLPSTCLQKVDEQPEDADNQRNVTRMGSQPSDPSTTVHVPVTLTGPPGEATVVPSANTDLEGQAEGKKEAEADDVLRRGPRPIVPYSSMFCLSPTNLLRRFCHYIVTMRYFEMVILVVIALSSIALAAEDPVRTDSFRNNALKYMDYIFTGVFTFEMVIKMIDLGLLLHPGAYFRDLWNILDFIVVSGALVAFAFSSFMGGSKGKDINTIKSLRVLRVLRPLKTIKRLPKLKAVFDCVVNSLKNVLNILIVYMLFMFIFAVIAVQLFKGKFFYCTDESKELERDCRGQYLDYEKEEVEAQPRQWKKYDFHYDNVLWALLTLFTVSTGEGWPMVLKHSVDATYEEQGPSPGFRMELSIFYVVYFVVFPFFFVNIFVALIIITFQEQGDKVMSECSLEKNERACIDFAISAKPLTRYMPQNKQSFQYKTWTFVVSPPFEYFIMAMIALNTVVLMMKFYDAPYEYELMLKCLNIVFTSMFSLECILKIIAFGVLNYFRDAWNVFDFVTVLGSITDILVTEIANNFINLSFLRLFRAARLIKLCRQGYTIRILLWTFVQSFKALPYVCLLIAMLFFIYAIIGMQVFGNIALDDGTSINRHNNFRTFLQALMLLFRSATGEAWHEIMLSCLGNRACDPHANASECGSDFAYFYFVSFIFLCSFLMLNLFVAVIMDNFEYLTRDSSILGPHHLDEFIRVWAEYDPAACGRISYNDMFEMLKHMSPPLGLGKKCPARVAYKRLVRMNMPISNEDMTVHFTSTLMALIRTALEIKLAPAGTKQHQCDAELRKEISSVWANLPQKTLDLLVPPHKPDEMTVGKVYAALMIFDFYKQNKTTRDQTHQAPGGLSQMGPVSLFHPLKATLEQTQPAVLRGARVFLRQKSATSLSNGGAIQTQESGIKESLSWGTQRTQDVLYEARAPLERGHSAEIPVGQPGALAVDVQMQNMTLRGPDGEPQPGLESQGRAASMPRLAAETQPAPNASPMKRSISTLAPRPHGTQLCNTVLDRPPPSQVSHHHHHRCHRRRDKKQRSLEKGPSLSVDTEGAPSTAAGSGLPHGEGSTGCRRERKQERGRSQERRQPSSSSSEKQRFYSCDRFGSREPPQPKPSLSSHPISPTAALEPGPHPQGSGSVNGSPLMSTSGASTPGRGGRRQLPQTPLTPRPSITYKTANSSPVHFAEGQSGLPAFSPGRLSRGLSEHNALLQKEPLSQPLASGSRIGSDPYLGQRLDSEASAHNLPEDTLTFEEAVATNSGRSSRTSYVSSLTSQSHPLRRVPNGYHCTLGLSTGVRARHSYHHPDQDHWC
inhA: Enoyl-[acyl-carrier-protein] reductase [NADH] (inhA, Mycobacterium tuberculosis, UniProt P9WGR1)
UniProt Q8NER1, sequence (whole entry, looked up): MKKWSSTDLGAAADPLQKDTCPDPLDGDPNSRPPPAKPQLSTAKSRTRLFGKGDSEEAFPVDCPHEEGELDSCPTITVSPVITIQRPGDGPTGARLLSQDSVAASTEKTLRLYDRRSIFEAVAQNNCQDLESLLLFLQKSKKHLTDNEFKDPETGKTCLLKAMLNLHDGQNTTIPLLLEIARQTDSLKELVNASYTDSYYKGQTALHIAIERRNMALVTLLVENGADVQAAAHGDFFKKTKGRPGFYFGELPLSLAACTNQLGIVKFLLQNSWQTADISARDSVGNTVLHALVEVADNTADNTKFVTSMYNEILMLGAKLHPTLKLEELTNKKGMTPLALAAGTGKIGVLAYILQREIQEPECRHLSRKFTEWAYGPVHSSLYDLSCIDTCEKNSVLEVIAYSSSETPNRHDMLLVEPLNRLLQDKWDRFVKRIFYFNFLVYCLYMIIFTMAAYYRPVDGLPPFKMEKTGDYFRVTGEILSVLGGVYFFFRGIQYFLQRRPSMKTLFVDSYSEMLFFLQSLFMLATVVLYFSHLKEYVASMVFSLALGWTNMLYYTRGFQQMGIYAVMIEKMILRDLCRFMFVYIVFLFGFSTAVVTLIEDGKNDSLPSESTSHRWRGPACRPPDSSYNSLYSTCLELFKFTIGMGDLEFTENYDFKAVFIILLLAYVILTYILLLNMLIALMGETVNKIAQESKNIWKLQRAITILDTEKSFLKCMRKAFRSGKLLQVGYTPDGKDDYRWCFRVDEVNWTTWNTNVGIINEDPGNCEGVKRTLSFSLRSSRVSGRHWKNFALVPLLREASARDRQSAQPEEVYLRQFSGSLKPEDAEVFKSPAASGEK
UniProt P9WGR1, sequence (whole entry, looked up): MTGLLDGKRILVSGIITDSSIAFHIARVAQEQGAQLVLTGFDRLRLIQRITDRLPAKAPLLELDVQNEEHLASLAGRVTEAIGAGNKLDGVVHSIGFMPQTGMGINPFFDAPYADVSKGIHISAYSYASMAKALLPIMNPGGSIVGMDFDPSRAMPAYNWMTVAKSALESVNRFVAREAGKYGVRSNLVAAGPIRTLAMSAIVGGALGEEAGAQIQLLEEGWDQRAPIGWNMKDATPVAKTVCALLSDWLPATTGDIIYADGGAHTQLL
UniProt P21918, sequence (whole entry, looked up): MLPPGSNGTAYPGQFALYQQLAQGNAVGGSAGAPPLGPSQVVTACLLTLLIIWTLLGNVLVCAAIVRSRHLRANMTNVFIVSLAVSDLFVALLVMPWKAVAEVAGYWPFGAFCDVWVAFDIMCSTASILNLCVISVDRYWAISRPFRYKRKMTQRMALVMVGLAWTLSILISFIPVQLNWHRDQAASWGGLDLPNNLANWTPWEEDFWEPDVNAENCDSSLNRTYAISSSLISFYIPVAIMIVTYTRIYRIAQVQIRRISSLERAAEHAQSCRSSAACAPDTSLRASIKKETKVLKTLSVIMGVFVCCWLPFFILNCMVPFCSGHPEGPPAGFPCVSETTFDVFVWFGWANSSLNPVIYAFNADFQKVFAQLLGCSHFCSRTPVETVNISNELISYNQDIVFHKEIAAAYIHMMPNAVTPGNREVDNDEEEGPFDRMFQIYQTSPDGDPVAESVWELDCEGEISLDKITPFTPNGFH
UniProt P28564, sequence (whole entry, looked up): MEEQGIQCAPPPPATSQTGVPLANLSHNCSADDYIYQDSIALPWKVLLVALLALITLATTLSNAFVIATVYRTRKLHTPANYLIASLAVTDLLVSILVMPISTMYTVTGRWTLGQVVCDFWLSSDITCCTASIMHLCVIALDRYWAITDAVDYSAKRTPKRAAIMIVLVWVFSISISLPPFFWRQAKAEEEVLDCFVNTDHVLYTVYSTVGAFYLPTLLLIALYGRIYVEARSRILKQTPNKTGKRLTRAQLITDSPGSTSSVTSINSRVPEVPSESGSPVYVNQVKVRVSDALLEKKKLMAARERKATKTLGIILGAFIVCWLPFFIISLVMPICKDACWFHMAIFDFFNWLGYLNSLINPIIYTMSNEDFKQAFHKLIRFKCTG

The inhibition of C[Si]1(C[C@H](CN)CC(=O)O)CCCC1 is reported as 1% (Cacna1b; cell-free assay, inhibitor; 70 µM).
CN[C@@H]1[C@H](O)[C@H](NC)[C@H]2O[C@]3(O)[C@H](O[C@@H]2[C@H]1O)O[C@H](C)C[C@H]3NC(=O)Cc1ccc(Cl)cn1 has an inhibition of 3% (ATP-binding cassette sub-family C member 8 (ABCC8, Cricetus cricetus, UniProt Q09427); 10 µM).
CCN(CC)C(=O)[C@@H]1C=C2c3cccc4c3c(cn4C(=O)c3ccco3)C[C@H]2N(C)C1 has an inhibition of < 50% (D(1B) dopamine receptor (DRD5, Homo sapiens, UniProt P21918); radioligand binding; 10 µM).
CCCCCCNCc1ccc(Oc2ccc(Cl)cc2O)c(Cl)c1 gave an inhibition of 38 ± 0.15% (inhA; enzyme activity, inhibitor; concentration not given).
With CC(C)c1nc2cc(O)ccc2c(=O)n1-c1ccc(C#N)cc1 the inhibition was 67.2% and 65.2% and 50.4% and 89.7% and 82.2% and 58.2% (Transient receptor potential cation channel subfamily V member 1 (TRPV1, Homo sapiens, UniProt Q8NER1); ion current, whole-cell patch clamp; HEK-293T; 1 µM, pH 5).
The inhibition of N#Cc1ccc(Oc2ccc(Cl)cc2Cl)c(O)c1 is reported as 97 ± 0.06% (inhA; enzyme activity, inhibitor; concentration not given).
For Cc1sc2c(c1C)C(c1ccc(Cl)cc1)=NC(CC(=O)OC(C)(C)C)c1nnc(C)n1-2 (stereo not drawn), the inhibition was -4% (5-hydroxytryptamine receptor 1B (Htr1b, Rattus norvegicus, UniProt P28564); ligand displacement, radioligand; 1 µM).
CCCCCCNCc1ccc(Oc2ccc(Cl)cc2Cl)c(O)c1 has an inhibition of 73 ± 0.4% (inhA; enzyme activity, inhibitor; concentration not given).
With C[Si](C)(C)C[C@H](CN)CC(=O)O the inhibition was -3% (Cacna1b; cell-free assay, inhibitor; 250 µM).

Excerpt of the above:
The inhibition of N#Cc1ccc(Oc2ccc(Cl)cc2Cl)c(O)c1 is reported as 97 ± 0.06% (inhA; enzyme activity, inhibitor; concentration not given).
